Measured values from different studies.
Every numbered part comes from another study and shows a few of its results, in no order. Substitutions count along the parent as printed.

Sample 1
Target: RING finger protein unkempt homolog, zinc fingers 1-6, GST-SBP tag (UNK, Homo sapiens, UniProt Q9C0B0, residues 30-357)
UniProt Q9C0B0, sequence (30-357, looked up): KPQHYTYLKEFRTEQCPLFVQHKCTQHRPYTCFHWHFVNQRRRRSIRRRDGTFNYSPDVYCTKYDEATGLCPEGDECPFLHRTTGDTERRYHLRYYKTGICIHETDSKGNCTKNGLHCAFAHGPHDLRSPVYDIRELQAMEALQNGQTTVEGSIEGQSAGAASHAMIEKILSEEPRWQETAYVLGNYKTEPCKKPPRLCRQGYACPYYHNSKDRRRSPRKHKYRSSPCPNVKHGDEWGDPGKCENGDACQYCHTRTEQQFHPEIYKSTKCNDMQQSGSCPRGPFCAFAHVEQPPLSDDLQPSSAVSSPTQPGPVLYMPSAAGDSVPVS
Method: RNA Bind-n-Seq
Molecule type: RNA
Sample: in vitro
Tested at: not given
Notes: RNA with constant flanks, human and mouse sites, ends assumed
Baseline: input RNA pool
Direction: higher = stronger binding
`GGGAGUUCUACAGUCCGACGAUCCUCCCUCAACCAAUUUAUAGACACAUAGCAUCUUUCCUGUCAGUCUUCAAACUAGUAUUAAUAGGCUUAAUAAUUGUUGGCAAAGAUCCUUUUGCUUUUUUCGGCAUGCAAGCUCCUAGCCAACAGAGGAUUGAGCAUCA` gave a bound/input enrichment of 116 ratio.
`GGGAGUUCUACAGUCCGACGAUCUCCUUCAUCGCCUCAGAAUCUGCUGUGGAAUUGCUUCCCGUUUGGUGUGUGGUGGCACUUCUCCAAUGUGGACUCCAAAGGAUUUGUCCCUUUACAAUUUGAAAUGAAAUGAUGGCCACACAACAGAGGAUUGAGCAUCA` has a bound/input enrichment of 0.22 ratio.
With `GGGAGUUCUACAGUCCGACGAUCGAAUUGGUACAAGCCAUGUUUCCCAAACUGAACAAUCAAGAAAGAGUUACACUGUUAGACCUUAUGAUAGCCAAGAUAACGAGUGAUGAGCCACUCACCAAGGAUGACAUCCCUGUGUUUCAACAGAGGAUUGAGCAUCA` the bound/input enrichment was 2.49 ratio.
With `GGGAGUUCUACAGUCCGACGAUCCUUGCCCAGCUAUGGCCCCCUCUCAUUCACAAAGUGCCCCCUCCAUGUCCCUGGACCCUUAAGAUAUCCCCUUGGCACCCUGGUCAGAGACUCUGUGUCUGACUCAGGUGGUCCCUGCAGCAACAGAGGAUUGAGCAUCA` the bound/input enrichment was 0.39 ratio.
With `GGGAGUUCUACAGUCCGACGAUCUGGUAAAAUUCUGCUCUCAUGAACAAGGAGUCACUUCAUAGAUUGUGAUCAACAGCUUGGUAGUACUUGCUGUAAGGGAUUGAGUUGCGCCAGACUUUGUCUCUUUAUUCUUGUGCAGUGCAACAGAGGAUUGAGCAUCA` the bound/input enrichment was 0.179 ratio.
`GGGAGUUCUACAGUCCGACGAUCAAGCCUCCAAAGCGGAAGAAGGCAGACACUGAGGGAAAGUCUCCAUCUCAUAGUUCUUCUAACAGACCUUUUACCCCACCUACCAGUACAGGUGGAUCUAAAUCGCCAGGCAGUGCAGGACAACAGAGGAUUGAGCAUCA` has a bound/input enrichment of 0.169 ratio.
With `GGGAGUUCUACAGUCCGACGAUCAAGGGGGAUCAGGAGAACGUACACCCGGAUGUGAUGCUGGUACAACCCAGAGUAGAAUUUAUUCUGUCUUUCAUUGACCACAUUGCUGGAGAUGAGGAUCACACAGAUGGAGUAGUAGCUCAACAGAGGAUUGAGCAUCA` the bound/input enrichment was 0.46 ratio.

Sample 2
Target: Ras GTPase-activating protein-binding protein 1, full length (G3BP1, Homo sapiens, UniProt Q13283)
UniProt Q13283, sequence (whole entry, looked up): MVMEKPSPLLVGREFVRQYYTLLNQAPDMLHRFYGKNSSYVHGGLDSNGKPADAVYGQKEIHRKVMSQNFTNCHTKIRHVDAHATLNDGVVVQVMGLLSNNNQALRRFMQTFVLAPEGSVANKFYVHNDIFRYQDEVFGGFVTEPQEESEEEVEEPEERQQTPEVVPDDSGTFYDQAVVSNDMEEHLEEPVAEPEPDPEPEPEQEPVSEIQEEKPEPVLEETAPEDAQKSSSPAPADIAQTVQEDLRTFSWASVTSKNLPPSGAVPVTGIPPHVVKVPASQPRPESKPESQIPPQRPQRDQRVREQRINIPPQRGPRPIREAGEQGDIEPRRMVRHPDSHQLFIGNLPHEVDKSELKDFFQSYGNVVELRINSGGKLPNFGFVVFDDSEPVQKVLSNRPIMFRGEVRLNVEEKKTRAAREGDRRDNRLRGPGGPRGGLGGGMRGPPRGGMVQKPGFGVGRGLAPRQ
Method: RNA Bind-n-Seq
Molecule type: RNA
Sample: in vitro
Tested at: 200 nM
Notes: whole 134-nt RNA, ends assumed
Together with: 150 mM LiCl
Baseline: input library
Direction: higher = stronger binding
All molecules: 7-deaza-guanosine replaces G
For `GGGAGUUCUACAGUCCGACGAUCGCUGUUCUUGCCUUAGCUGCAUCUUGGACCUCAAGACAAGUAGGAGAACGGACGUUGACCGGUACGGUAAUAGACAGUGGAGAUGGUGUCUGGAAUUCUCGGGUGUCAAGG`, the log2 enrichment was -1.64.
The log2 enrichment of `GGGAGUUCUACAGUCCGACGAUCUCAAGUCCUGUGCUACACAUCGUAUGUACCGAAUCGGAAAGGGAAAGGGAAAGGGAAAGUAUUAUGUUACGCCGUUCGGAUCUGCACUUCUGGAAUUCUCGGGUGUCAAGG` is reported as -0.206.
`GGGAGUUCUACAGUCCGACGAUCUCCUCAAGUCCUGUGCUACACAUCGUAUGUACCGAAUCGGGGAGGAGGAGGAAAGUAUUAUGUUACGCCGUUCGGAUCUGCACUUCCAGCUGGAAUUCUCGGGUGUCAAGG` has a log2 enrichment of -0.669.
The log2 enrichment of `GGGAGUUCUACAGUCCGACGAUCGUCCUGUGCUACACAUCGUAUGUACCGAAUCAAAUUUUUAAACCCCCCCAAAUUUAAAAAAGUAUUAUGUUACGCCGUUCGGAUCUGCACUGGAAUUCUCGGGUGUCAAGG` is reported as 0.391.
The log2 enrichment of `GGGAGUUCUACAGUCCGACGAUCAAGUCCUGUGCUACACAUCGUAUGUACCGAAUCGGGUGGGAAAAAAAGGGUUUGGGAAAGUAUUAUGUUACGCCGUUCGGAUCUGCACUUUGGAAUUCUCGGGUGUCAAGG` is reported as -1.69.
`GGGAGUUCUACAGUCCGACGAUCCACAGACAACACGCACCCACACAGACACAGAGGGAAGGGGUUGGGAUGGGGACAGGGUGCACAGCAGGGCGGGGUAGGACCCUAGCCCCUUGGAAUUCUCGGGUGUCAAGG` gave a log2 enrichment of -0.556.
With `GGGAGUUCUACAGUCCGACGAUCAGUCCUGUGCUACACAUCGUAUGUACCGAAUCAAAUUUUUAAAUUUAAACCCCCAAAAAAGUAUUAUGUUACGCCGUUCGGAUCUGCACUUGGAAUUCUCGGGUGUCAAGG` the log2 enrichment was 0.464.
For `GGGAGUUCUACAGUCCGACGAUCCCUGUGCUACACAUCGUAUGUACCGAAUCGGGGCCCCCCGGCCCCCCGGGCCCCCCGGGGAAAGUAUUAUGUUACGCCGUUCGGAUCUGCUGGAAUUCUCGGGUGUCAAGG`, the log2 enrichment was 0.155.

Sample 3
Target: Sal-like protein 4, full length isoform B (SALL4, Homo sapiens, UniProt Q9UJQ4-2, residues 1-616)
Method: universal PBM
Molecule type: double-stranded DNA, one strand shown
Sample: in vitro
Tested at: not given
Notes: 8-mer, flanks averaged, mean of replicates
Direction: higher = stronger binding
With `CAGAGTAG` the E-score was -0.133.
The E-score of `TACGAGGA` is reported as -0.0564.
With `AATTCGAC` the E-score was -0.0986.
`CGTTAGGA` gave an E-score of 0.0142.
`AAGGACAC` gave an E-score of -0.0663.
The E-score of `CGAATACC` is reported as -0.174.
`ATGCCCTC` gave an E-score of -0.00709.
The E-score of `CCCGAACG` is reported as -0.337.
For `ATCGCCGA`, the E-score was -0.102.
With `AAGCCCCT` the E-score was -0.158.
The E-score of `CACGTATC` is reported as 0.037.
`GTCCCATA` has an E-score of 0.0982.
For `CAACTTAC`, the E-score was -0.0681.
With `AGGACTAC` the E-score was -0.168.
For `GAGCCGTA`, the E-score was -0.0159.
With `ATCGGATG` the E-score was -0.125.
For `TAACCTAA`, the E-score was 0.185.
`AACTATAA` gave an E-score of 0.342.
`CACGTGCG` gave an E-score of -0.225.
With `CTCCACAG` the E-score was -0.184.
The E-score of `CTGATTTC` is reported as -0.0403.
The E-score of `GCCGGAGA` is reported as -0.21.
`CATGCCGC` has an E-score of -0.0943.
`CCCATAGC` has an E-score of -0.0689.
With `AAAACTGA` the E-score was 0.102.

Sample 4
Target: CCND1, cyclin fold, Cln2 fusion (human)
Method: yeast growth competition, sequencing
Sample: yeast
Notes: weak parent motif
Baseline: not given
Direction: higher = stronger binding
Starting sequence: CDC6 docking peptide (human); TLKGRRLVFDNQL; partner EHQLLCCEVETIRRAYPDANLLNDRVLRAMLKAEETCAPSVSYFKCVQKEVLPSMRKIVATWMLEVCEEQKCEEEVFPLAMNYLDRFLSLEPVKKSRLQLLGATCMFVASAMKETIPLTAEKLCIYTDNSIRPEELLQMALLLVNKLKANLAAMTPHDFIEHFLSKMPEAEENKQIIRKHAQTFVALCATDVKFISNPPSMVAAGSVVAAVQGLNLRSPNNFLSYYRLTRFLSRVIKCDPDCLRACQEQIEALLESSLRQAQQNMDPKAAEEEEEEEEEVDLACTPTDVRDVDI
Under “normalised enrichment score”, `TLKGRRLVFDNQS [L13S]` is recorded as 0.465.
Under “normalised enrichment score”, `TLKGRRLVFQNQL [D10Q]` is recorded as -0.406.
`TLKGRMLVFDNQL [R6M]`: “normalised enrichment score” 1.28.
For `TLKGYRLVFDNQL [R5Y]`, “normalised enrichment score” read -0.131.
For `TLKGHRLVFDNQL [R5H]`, “normalised enrichment score” read -0.39.
Under “normalised enrichment score”, `TLSGRRLVFDNQL [K3S]` is recorded as 0.642.
For `TLKGRRLVMDNQL [F9M]`, “normalised enrichment score” read -0.207.
Under “normalised enrichment score”, `TLKGIRLVFDNQL [R5I]` is recorded as 0.423.
Under “normalised enrichment score”, `TLKGRRLVFDTQL [N11T]` is recorded as 0.765.
`TLKGRRLVFDYQL [N11Y]`: “normalised enrichment score” 0.859.
Under “normalised enrichment score”, `TLKIRRLVFDNQL [G4I]` is recorded as 0.645.
Under “normalised enrichment score”, `TLKLRRLVFDNQL [G4L]` is recorded as -0.233.
`TLKGRRTVFDNQL [L7T]` — result for “normalised enrichment score”: -0.327.
For `TLKGRHLVFDNQL [R6H]`, “normalised enrichment score” read 0.315.
`TLKGRRLVQDNQL [F9Q]` — result for “normalised enrichment score”: -0.118.
Under “normalised enrichment score”, `TLKGRRLVWDNQL [F9W]` is recorded as 0.593.
For `TLKGRLLVFDNQL [R6L]`, “normalised enrichment score” read 0.659.
`TLEGRRLVFDNQL [K3E]` — result for “normalised enrichment score”: 0.665.
For `TLKGRRLVFGNQL [D10G]`, “normalised enrichment score” read -0.216.
`TLKGRRLVFSNQL [D10S]` — result for “normalised enrichment score”: 0.413.
Under “normalised enrichment score”, `TLVGRRLVFDNQL [K3V]` is recorded as 1.69.
`TLKGRVLVFDNQL [R6V]`: “normalised enrichment score” 1.54.
